Measured values of several laboratories.
Compare with care: the assays were run in different laboratories. ± gives the spread as reported. ≈ marks a conversion by molar mass, not a printed value.

Amino acid sequences for entries named in this document (tags omitted).
UniProt Q9UQ07, whole entry: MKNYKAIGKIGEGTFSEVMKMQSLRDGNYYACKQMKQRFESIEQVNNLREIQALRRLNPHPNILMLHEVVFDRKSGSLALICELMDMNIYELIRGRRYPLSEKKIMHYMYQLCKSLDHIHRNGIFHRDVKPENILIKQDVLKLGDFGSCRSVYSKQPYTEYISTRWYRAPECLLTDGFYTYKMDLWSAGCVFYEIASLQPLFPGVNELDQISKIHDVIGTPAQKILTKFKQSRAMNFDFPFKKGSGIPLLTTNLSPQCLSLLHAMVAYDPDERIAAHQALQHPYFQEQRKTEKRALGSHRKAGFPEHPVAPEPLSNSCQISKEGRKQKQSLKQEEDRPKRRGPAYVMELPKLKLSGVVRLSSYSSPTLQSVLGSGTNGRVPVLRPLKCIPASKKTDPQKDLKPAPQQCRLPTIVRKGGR

Molecule = O=c1ccc2nc3ccc(OCc4ccc([N+](=O)[O-])o4)cc3oc-2c1I; tested on = Mycobacterium tuberculosis; test system = mc2 6206 bedaquiline-resistant MmpL5 regulator mutant; conditions = 7 days; quantity = MIC90; value = 2.3 µM (≈ 1.07 µg/mL)
Molecule = C1CCCC2(CC1)OOCOCOOC1(CCCCCC1)OO2; tested on = K562; assay = cytotoxicity, 7-AAD flow cytometry; quantity = IC50; value = 7.49 ± 0.21 µM
Molecule = CCCc1nn2c(=O)cc(CSc3nc(-c4ccc(C)cc4)nc4cc(=O)[nH]n34)nc2s1; tested on = Zika virus; assay = viral replication; test system = PF-251013-18; quantity = IC50; value = > 10 µM
Molecule = CCN1CCN(Cc2ccc(NC(=O)c3ccc(C)c(/C=C/c4cnc5[nH]ccc5c4OC)c3)cc2C(F)(F)F)CC1; tested on = MOK (Homo sapiens, UniProt Q9UQ07); assay = inhibitor; conditions = 5 µM; how to read = reference: no inhibitor; quantity = log2 fold change; value = -0.257
Molecule = COc1ccc2nc3ccc(=O)cc-3oc2c1; tested on = Mycobacterium tuberculosis; test system = mc2 6206 bedaquiline-resistant MmpL5 regulator mutant; conditions = 7 days; quantity = MIC90; value = 6.6 µM (≈ 1.5 µg/mL)
Molecule = CC[C@H](C)[C@@H]1NC(=O)[C@H](CCC(=O)O)NC(=O)[C@@H]2CCCN2C(=O)[C@H](Cc2c[nH]cn2)NC(=O)[C@H](CC(=O)O)NC(=O)[C@H](Cc2ccc(O)cc2)NC(=O)[C@H](CC(N)=O)NC(=O)[C@@H]2CSSC[C@@H]3NC(=O)CNC(=O)CNC(=O)CNC(=O)[C@H](C)NC(=O)[C@H](C)NC(=O)CNC(=O)CNC(=O)[C@H](CSSC[C@H](NC3=O)C(=O)N[C@@H](CO)C(=O)N[C@@H](CC(=O)O)C(=O)N3CCC[C@H]3C(=O)N[C@@H](CCCNC(=N)N)C(=O)N2)NC1=O; tested on = Cav2.3c human Y1761F; assay = Ba2+ current; conditions = 200 nM; quantity = inhibition; value = 0.37 ± 0.3%
Molecule = COCOc1ccc2nc3ccc(=O)c(I)c-3oc2c1; tested on = Mycobacterium tuberculosis; test system = mc2 6206 clofazimine-resistant fbiC mutant; conditions = 7 days; quantity = MIC90; value = 16 µM (≈ 6.13 µg/mL)
Molecule = Cc1ccc(S(=O)(=O)N(C)CC(=O)N(Cc2ccc(C3CCCCC3)cc2)c2ccc(C(=O)O)c(O)c2)cc1; tested on = STAT3; assay = confocal immunofluorescence; test system = NIH3T3/hEGFR; conditions = 50 µM, 30 min pretreatment, together with: 1 µg/mL EGF 10 min; quantity = Stat3-EGFR colocalization; value = inhibited
Molecule = CCCCCCC1c2ccc(O)cc2Oc2cc(O)ccc21; tested on = Klebsiella spp.; conditions = together with: polymyxin B nonapeptide 25 µg/mL; quantity = MIC; value = 7.5 mg/L (≈ 25.1 µM)
Molecule = CC1(C)CCC(Cc2cc(O)c(-c3ccccc3)c(=O)[nH]2)CC1; tested on = Mycobacterium tuberculosis; test system = inhA G96V resistant mutant; quantity = MIC50; value = > 5 µM
Molecule = Cc1c(N2CC[C@@H](CN)C2)c(F)cc2c(=O)n(N)c(=O)n(C3CC3)c12; tested on = Staphylococcus aureus topoisomerase IV GrlA S81F; assay = DNA cleavage; quantity = CC3; value = 0.3 µM
Molecule = O=c1ccc2[n+]([O-])c3ccc(O)cc3oc-2c1; tested on = Mycobacterium tuberculosis; test system = mc2 6206 bedaquiline-resistant MmpL5 regulator mutant; conditions = 7 days; quantity = MIC90; value = 118 µM (≈ 27 µg/mL)
Molecule = CSc1nc(Cl)cc(Sc2nnc(-c3cc(C(F)(F)F)cc(C(F)(F)F)c3)[nH]2)n1; tested on = Escherichia coli; test system = prlD mutants; conditions = 37 °C, azide resistant or supersensitive, together with: polymyxin B nonapeptide 25 µg/mL; quantity = MIC; value = 0.7 to 3 mg/L (≈ 1.48 to 6.36 µM)
Molecule = C#Cc1ccc2c(c1)C(c1ccccc1F)=N[C@H](C)c1c(-c3nc(C(C)C)no3)ncn1-2; tested on = sigma-2 receptor; assay = radioligand binding; conditions = concentration not given, primary screen, together with: [3H]ditolylguanidine; quantity = inhibition; value = > 50%
Molecule = COCOc1ccc2nc3ccc(=O)cc-3oc2c1; tested on = Mycobacterium tuberculosis; test system = mc2 6206 PA-824-resistant ddn mutant; conditions = 7 days; quantity = MIC90; value = 7.2 µM (≈ 1.85 µg/mL)
Molecule = CC#C/C(=N\OC[C@H]1COCCN1)c1ccc2ncnc(Nc3ccc(OCc4cccc(F)c4)c(Cl)c3)c2c1; tested on = NCI-N87; assay = cell growth; conditions = together with: 2% albumin or 0.08% AGP; how to read = reference: with over without protein; quantity = IC50 fold shift; value = 2.9 to 4.4 fold
Molecule = U-69593; tested on = opioid receptors, mouse; assay = G protein activation, agonist; test system = C57BL/6 wild-type mouse striatal membranes; quantity = EC50; value = 0.47 ± 0.14 µM
Molecule = O=c1ccc2nc3ccc(OCc4ccc([N+](=O)[O-])cc4)cc3oc-2c1; tested on = Mycobacterium tuberculosis; test system = mc2 6206 PA-824-resistant ddn mutant; conditions = 7 days; quantity = MIC90; value = > 256 µM
Molecule = CO[C@H]1/C=C/O[C@@]2(C)Oc3c(C)c(O)c4c(O)c(c(/C=N/N5CCN(C)CC5)c(O)c4c3C2=O)NC(=O)/C(C)=C\C=C\[C@H](C)[C@H](O)[C@@H](C)[C@@H](O)[C@@H](C)[C@H](OC(C)=O)[C@@H]1C; tested on = Mycobacterium bovis; test system = BCG Tac^r7.2, thyA mutant; conditions = TA-C-resistant thyA mutant; quantity = MIC50; value = 0.0016 µM (≈ 0.00132 µg/mL)
Molecule = CC(C)Cc1nnc2c(C(=O)NC3c4ccccc4-c4ccccc43)cccn12; tested on = Escherichia coli; assay = broth microdilution; test system = D21f2tolC rpoB D516V; quantity = MIC; value = 8 mg/L (≈ 20.9 µM)

For quick reference, copied from above:
Molecule = O=c1ccc2[n+]([O-])c3ccc(O)cc3oc-2c1; tested on = Mycobacterium tuberculosis; test system = mc2 6206 bedaquiline-resistant MmpL5 regulator mutant; conditions = 7 days; quantity = MIC90; value = 118 µM (≈ 27 µg/mL)
Molecule = CSc1nc(Cl)cc(Sc2nnc(-c3cc(C(F)(F)F)cc(C(F)(F)F)c3)[nH]2)n1; tested on = Escherichia coli; test system = prlD mutants; conditions = 37 °C, azide resistant or supersensitive, together with: polymyxin B nonapeptide 25 µg/mL; quantity = MIC; value = 0.7 to 3 mg/L (≈ 1.48 to 6.36 µM)
